# Measured values collected from several papers.
# “And” joins repeats or separate records; there may be more than shown.
# MAPK14: Mitogen-activated protein kinase 14 (MAPK14, Homo sapiens, UniProt Q16539)
# UniProt Q16539, sequence (whole entry, unmodified, looked up): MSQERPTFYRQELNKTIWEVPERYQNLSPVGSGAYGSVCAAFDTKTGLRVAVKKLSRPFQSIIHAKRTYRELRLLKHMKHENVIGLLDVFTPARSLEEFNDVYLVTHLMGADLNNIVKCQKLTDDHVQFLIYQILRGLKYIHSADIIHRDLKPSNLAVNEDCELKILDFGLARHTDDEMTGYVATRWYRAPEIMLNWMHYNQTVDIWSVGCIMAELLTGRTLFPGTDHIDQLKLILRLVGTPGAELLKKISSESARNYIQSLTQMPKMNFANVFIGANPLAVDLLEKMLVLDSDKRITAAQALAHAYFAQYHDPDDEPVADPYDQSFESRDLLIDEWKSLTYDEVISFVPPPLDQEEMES
Structure (SMILES),target,assay,setting,scale,quantity,result
O=C(Nc1nc2n(n1)C(c1ccc(F)cc1)C=C(c1ccccc1)N2)c1cccc([N+](=O)[O-])c1 (stereo not drawn),MAPK14,"enzyme activity, inhibitor, TR-FRET",up to 30 µM,,inhibition,no inhibition
COc1cc(F)ccc1-c1ncnc(Nc2cccc(C[S@](C)(=N)=O)c2)n1,MAPK14,kinase activity,"10 µM, added: 10 µM ATP",,remaining activity,97%
CCCOc1ccc(OC)c(F)c1C(=O)c1ccc(C(=O)N[C@@H]2CNC[C@H]2NC(=O)c2ccc3[nH]ncc3c2)cc1,MAPK14,enzyme activity,10 µM,,remaining activity,110%
CNc1cccc2cc(C(=O)Nc3ccc(C(=O)O)cc3)c(=O)[nH]c12,MAPK14,"kinase activity, inhibitor",10 µM,,inhibition,-2.4%
C[C@@H](c1ccc(-n2cnc3c(N)ncnc32)cc1)N1CCc2nn(C)c(Cc3ccccc3)c2C1=O,MAPK14,KINOMEscan,0.1 µM,baseline: DMSO control,remaining binding,98%
Cc1cc(C)nc(NC(=S)N2CCN(Cc3ccc(C(F)(F)F)cc3)CC2)c1,MAPK14,"inhibitor, ADP-Glo",concentration not given,,kinase activity,no effect
Cc1ccc2c(=O)cc(C(=O)Nc3c(C(=O)c4ccc(F)cc4)oc4ccccc34)oc2c1C,MAPK14,"enzyme activity, inhibitor, TR-FRET",up to 30 µM,,inhibition,no inhibition
c1cnc2ccc(Nc3nc(NC4CC4)c4nc[nH]c4n3)cc2c1,MAPK14,"kinase activity, inhibitor, SelectScreen kinase profiling",1 µM,baseline: control,remaining activity,115%
c1ccc(Cn2cc(-c3ccnc4ccccc34)c(-c3ccccn3)n2)cc1,MAPK14,enzyme activity,concentration not given,baseline: LY selectivity Yck2 over MAPK14,selectivity reduction,3 fold
[2H]c1cc(C)c(NC(=O)c2cnc(Nc3cc(N4CCC(O)CC4)nc(C)n3)s2)c(Cl)c1,MAPK14,,0.001 µM,,inhibition,< 50%
O=C(NC1CCC1)c1ccc2nc(-c3cccc(NS(=O)(=O)NCCN4CCCCC4)c3)cn2c1,MAPK14,enzyme activity,10 µM,,remaining activity,100%
Oc1ccc(-c2nc(-c3ccncc3)c(-c3ccc(F)cc3)[nH]2)cc1,MAPK14,"kinase activity, Kinase-Glo luminescence",concentration not given,,normalized luminescence,1.03 and 0.977 and 1.16
COc1cc(-c2cncc3c2CN(C)Cc2cc(N4CCNCC4)ccc2-3)cc(OC)c1OC,"MAPK14 (Homo sapiens, UniProt Q16539, T106M)",kinase activity,"1 µM, added: ATP 10 µM",baseline: DMSO control,remaining activity,93%
C=CC(=O)N1CCC(C(=O)NCC(=O)N2CCN(c3nc(-c4cnc(N)nc4C(F)F)nc(N4CCOCC4)n3)CC2)CC1,MAPK14,KINOMEscan,1 µM,,remaining binding,100%
CCCn1nc(C)c(-c2cc(C(=O)N3CCc4nc5cc(-c6ccccc6)[nH]n5c(=O)c4C3)[nH]n2)c1C,MAPK14,"kinase activity, LanthaScreen TR-FRET",SB202190 287.5 µM as -100%,baseline: DMSO control,efficacy,-48.1%

# Excerpt of the above:
Structure (SMILES),target,assay,setting,scale,quantity,result
O=C(NC1CCC1)c1ccc2nc(-c3cccc(NS(=O)(=O)NCCN4CCCCC4)c3)cn2c1,MAPK14,enzyme activity,10 µM,,remaining activity,100%
Oc1ccc(-c2nc(-c3ccncc3)c(-c3ccc(F)cc3)[nH]2)cc1,MAPK14,"kinase activity, Kinase-Glo luminescence",concentration not given,,normalized luminescence,1.03 and 0.977 and 1.16
